Measurements of several laboratories.
Organism: Staphylococcus aureus

CC(C)C[C@H]1NC(=O)[C@H](Cc2c[nH]c3ccccc23)NC(=O)[C@@H](C)NC(=O)[C@@H]2CSC(N2)[C@H](C(C)C)NC(=O)[C@@H](C(C)C)NC(=O)[C@H](C(C)C)NC1=O has an MIC of 12.5 µg/mL (NCTC 8325, Mueller Hinton broth; 21 h, 37 °C).
The MIC of CC[C@H](C)[C@@H]1NC(=O)[C@H](CO)NC(=O)[C@H](CCCCN)NC(=O)[C@@H]2CSSC[C@@H](C(=O)N[C@@H](Cc3ccc(O)cc3)C(N)=O)NC(=O)[C@H](CCCCN)NC(=O)[C@@H]3CSSC[C@H](NC(=O)[C@H](CCCNC(=N)N)NC(=O)[C@H](CC(C)C)NC(=O)[C@H](CC(=O)O)NC(=O)[C@H](CC(=O)O)NC(=O)[C@H](CCC(=O)O)NC(=O)[C@H](CC(N)=O)NC(=O)[C@H](Cc4c[nH]c5ccccc45)NC(=O)C(C)(CC)NC(=O)CNC(=O)[C@H](CC(N)=O)NC(=O)[C@@H](NC(=O)CNC(=O)[C@H](Cc4ccccc4)NC(=O)CN)CSSC[C@H](NC(=O)[C@H](Cc4ccc(O)cc4)NC(=O)CNC(=O)CNC(=O)[C@H](CCCCN)NC(=O)[C@H](Cc4ccc(O)cc4)NC(=O)[C@H]4CCCN4C(=O)[C@@H]4CCCN4C1=O)C(=O)N[C@@H](C)C(=O)N[C@@H](CCCCN)C(=O)N1CCC[C@@H]1C(=O)NCC(=O)N[C@@H](Cc1ccccc1)C(=O)N[C@@H](C(C)C)C(=O)N3)C(=O)N[C@@H](Cc1c[nH]cn1)C(=O)N[C@@H](CC(N)=O)C(=O)N[C@@H](Cc1c[nH]cn1)C(=O)N2 (stereo partly shown) is reported as 8 µM (467, methicillin-resistant mecA, cation-adjusted Mueller Hinton broth; 18 h, 37 °C).
CN[C@H](CC(C)C)C(=O)N[C@H]1C(=O)N[C@@H](CC(N)=O)C(=O)N[C@H]2C(=O)N[C@H]3C(=O)N[C@H](C(=O)N[C@H](C(=O)O)c4cc(O)cc(O)c4-c4cc3ccc4O)[C@H](O)c3ccc(c(Cl)c3)Oc3cc2cc(c3O[C@@H]2O[C@H](CO)[C@@H](O)[C@H](O)[C@H]2O[C@H]2C[C@](C)(NCc3ccc(OCc4cn(CCCCC(=O)N[C@H](C(=O)N[C@@H](CCN)C(=O)N[C@H]5CCNC(=O)[C@H]([C@@H](C)O)NC(=O)[C@H](CCN)NC(=O)[C@H](CCN)NC(=O)[C@H](CC(C)C)NC(=O)[C@@H](CC(C)C)NC(=O)[C@H](CCN)NC5=O)[C@@H](C)O)nn4)c(OC)c3)[C@H](O)[C@H](C)O2)Oc2ccc(cc2Cl)[C@H]1O has an MIC of 1 µM (LIM-2 VISA).
CC[C@H](C)[C@H](NC(=O)[C@H](CCCCN)NC(=O)[C@H](CC(N)=O)NC(=O)CNC(=O)[C@@H](NC(=O)[C@H](C)NC(=O)[C@H](CCCNC(=N)N)NC(=O)[C@H](CC(C)C)NC(=O)[C@H](CCCCN)NC(=O)[C@H](CCCCN)NC(=O)[C@H](CCCCN)NC(=O)[C@H](C)NC(=O)[C@H](CCCCN)NC(=O)[C@@H]1CSSC[C@H](NC(=O)[C@H](CCCNC(=N)N)NC(=O)CN)C(=O)N[C@@H](CC(N)=O)C(=O)N[C@@H](CC(C)C)C(=O)N[C@@H](CC(C)C)C(=O)N1)C(C)C)C(=O)N[C@@H](CCCCN)C(=O)N[C@@H](CCC(=O)O)C(=O)N[C@H](C(=O)N[C@@H](CCCCN)C(=O)N[C@@H](CC(N)=O)C(=O)N[C@H](C(=O)N[C@H](C(=O)N[C@@H](Cc1ccccc1)C(=O)N[C@@H](CC(N)=O)C(=O)N[C@@H](CCCNC(=N)N)C(=O)O)C(C)C)C(C)C)[C@@H](C)CC gave an MIC of 100 µM (broth dilution; ATCC 25923).
The MIC of CSCC[C@H](NC=O)C(=O)N[C@@H](CCCNC(=N)N)C(=O)N[C@H](C(=O)NCC(=O)N[C@@H](CC(N)=O)C(=O)N[C@@H](C)C(=O)N[C@@H](CC(N)=O)C(=O)NCC(=O)N1CCN(c2cc3c(cc2F)c(=O)c(C(=O)O)cn3C2CC2)CC1)[C@@H](C)O is reported as 80 µM (broth dilution; Newman).
With CC[C@H](C)[C@H](NC(=O)[C@@H](CCCNC(=N)N)NC(=O)[C@H](CCCNC(=N)N)NC(=O)[C@@H]1CCCN1C(=O)[C@@H]1CCCN1C(=O)[C@H](Cc1c[nH]c2ccccc12)NC(=O)[C@@H]1CCCN1C(=O)[C@H](CCCNC(=N)N)NC(=O)[C@@H]1CCCN1C(=O)[C@H](CC(C)C)NC(=O)[C@H](Cc1ccc(O)cc1)NC(=O)[C@@H]1CCCN1C(=O)[C@@H]1CCCN1C(=O)[C@H](CCCCN)NC(=O)[C@H](CC(=O)O)NC(=O)[C@@H](N)C(C)C)C(=O)N[C@@H](Cc1ccc(O)cc1)C(=O)N[C@@H](CC(N)=O)C(=O)N[C@H](CCCNC(=N)N)C(N)=O the MIC was greater than 128 µg/mL (broth microdilution; DSM 6247; 18 h, 37 °C, 25% MHB2).
With CC1CCN(C(=O)c2cccc(NC(=O)Nc3ccc(F)cc3F)c2)CC1 the MIC was greater than 64 µg/mL (checkerboard, refers to: ceftobiprole; CRB, PBP4 overexpressor; 25 µM).
C#CCNC(=O)[C@H]1NC(=O)[C@H]2NC(=O)[C@H](NC(=O)[C@@H]3NC(=O)[C@H](CC(N)=O)NC(=O)[C@H](NC(=O)[C@@H](CC(C)C)NC)[C@H](O)c4ccc(c(Cl)c4)Oc4cc3cc(c4O[C@@H]3O[C@H](CO)[C@@H](O)[C@H](O)[C@H]3O[C@H]3C[C@](C)(N)[C@H](O)[C@H](C)O3)Oc3ccc(cc3Cl)[C@H]2O)c2ccc(O)c(c2)-c2c(O)cc(O)cc21 has an MIC of 3 µM (NRS402 VISA).
For CC[C@H](C)[C@H](NC(=O)[C@H](C)NC(=O)CNC(=O)[C@@H](NC(=O)[C@@H](N)Cc1ccccc1)[C@@H](C)CC)C(=O)N[C@@H](C)C(=O)N[C@@H](CCCNC(=N)N)C(=O)N[C@@H](CC(C)C)C(=O)N[C@@H](CC(C)C)C(=O)N[C@@H](CO)C(=O)N[C@@H](CCCCN)C(=O)N[C@H](C(=O)N[C@@H](Cc1ccccc1)C(N)=O)[C@@H](C)CC, the MIC was 6.25 µg/mL (broth dilution; ATCC 25923; 24 h, 37 °C).
With CC[C@H](C)[C@H](NC(=O)[C@H](CCCNC(=N)N)NC(=O)[C@H](Cc1c[nH]c2ccccc12)NC(=O)[C@H](Cc1c[nH]c2ccccc12)NC(=O)[C@H](CCCNC(=N)N)NC(=O)[C@@H](N)CCCNC(=N)N)C(=O)N[C@@H](Cc1c[nH]c2ccccc12)C(N)=O the MIC was 8 µg/mL (6538).
For c1ccc(CCNC2CCCc3c2[nH]c2ccc(C4CCCCC4)cc32)cc1 (stereo not shown), the MIC was 2 µg/mL (broth microdilution; ATCC 29213).
CC[C@H](C)[C@H](NC(=O)[C@@H](CCCNC(=N)N)NC(=O)[C@H](CCCNC(=N)N)NC(=O)[C@@H](NC(=O)[C@H](Cc1c[nH]c2ccccc12)NC(=O)[C@H](CCCNC(=N)N)NC(=O)[C@@H]1CCCN1C(=O)[C@H](CCCNC(=N)N)NC(=O)[C@@H]1CCCN1C(=O)[C@H](CC(C)C)NC(=O)[C@H](Cc1ccc(O)cc1)NC(=O)[C@@H]1CCCN1C(=O)[C@@H]1CCCN1C(=O)[C@H](CCCCN)NC(=O)[C@H](CC(=O)O)NC(=O)[C@@H](N)C(C)C)[C@@H](C)O)C(=O)N[C@@H](Cc1ccc(O)cc1)C(=O)N[C@@H](CC(N)=O)C(=O)N[C@H](CCCNC(=N)N)C(N)=O gave an MIC of 64 µg/mL (broth microdilution; DSM 6247; 18 h, 37 °C, 25% MHB2).
The MIC of C#CCOc1ccc(CN[C@@]2(C)C[C@H](O[C@H]3[C@H](Oc4c5cc6cc4Oc4ccc(cc4Cl)[C@@H](O)[C@@H](NC(=O)[C@@H](CC(C)C)NC)C(=O)N[C@@H](CC(N)=O)C(=O)N[C@H]6C(=O)N[C@H]4C(=O)N[C@H](C(=O)N[C@H](C(=O)N[C@@H](CCCNC(=N)N)C(N)=O)c6cc(O)cc(O)c6-c6cc4ccc6O)[C@H](O)c4ccc(c(Cl)c4)O5)O[C@H](CO)[C@@H](O)[C@@H]3O)O[C@@H](C)[C@H]2O)cc1OC is reported as 0.281 µM (MSSA ATCC 29213).

A few entries again:
C#CCNC(=O)[C@H]1NC(=O)[C@H]2NC(=O)[C@H](NC(=O)[C@@H]3NC(=O)[C@H](CC(N)=O)NC(=O)[C@H](NC(=O)[C@@H](CC(C)C)NC)[C@H](O)c4ccc(c(Cl)c4)Oc4cc3cc(c4O[C@@H]3O[C@H](CO)[C@@H](O)[C@H](O)[C@H]3O[C@H]3C[C@](C)(N)[C@H](O)[C@H](C)O3)Oc3ccc(cc3Cl)[C@H]2O)c2ccc(O)c(c2)-c2c(O)cc(O)cc21 has an MIC of 3 µM (NRS402 VISA).
With CC[C@H](C)[C@H](NC(=O)[C@@H](CCCNC(=N)N)NC(=O)[C@H](CCCNC(=N)N)NC(=O)[C@@H]1CCCN1C(=O)[C@@H]1CCCN1C(=O)[C@H](Cc1c[nH]c2ccccc12)NC(=O)[C@@H]1CCCN1C(=O)[C@H](CCCNC(=N)N)NC(=O)[C@@H]1CCCN1C(=O)[C@H](CC(C)C)NC(=O)[C@H](Cc1ccc(O)cc1)NC(=O)[C@@H]1CCCN1C(=O)[C@@H]1CCCN1C(=O)[C@H](CCCCN)NC(=O)[C@H](CC(=O)O)NC(=O)[C@@H](N)C(C)C)C(=O)N[C@@H](Cc1ccc(O)cc1)C(=O)N[C@@H](CC(N)=O)C(=O)N[C@H](CCCNC(=N)N)C(N)=O the MIC was greater than 128 µg/mL (broth microdilution; DSM 6247; 18 h, 37 °C, 25% MHB2).
